Published values of several laboratories.
Parts stem from different laboratories: compare values within a part only. Substitutions count along the parent as printed.

Study 1 — target: CCNA2, cyclin fold, Cln2 fusion (human); technique: yeast growth competition, sequencing; medium: yeast; notes: strong parent motif; reference: not given; direction: higher = stronger binding
Starting sequence: CDKN1A docking peptide (human); SKACRRLFGPVDS
Variant	normalised enrichment score
C4F	2.66
C4W	1.86
R5S	0.595
V11E	6.16
K2R	5.76
F8I	1.08
D12K	5.01
F8E	-0.474
C4A	5.44
C4M	3.37
R6W	1.07
G9V	5.86
R6H	2.54
K2H	5.32
G9F	5.88
V11R	5.5
K2F	4.2
F8V	0.941
P10N	5.53
P10E	5.9
R5A L7A	0.041
G9E	5.88
V11P	5.6
K2A	4.54
F8Y	2.06

Study 2 — technique: RNA Bind-n-Seq; molecule type: RNA; medium: in vitro; concentration: 90 pmol; notes: 4-mer, random 30-nt RNA, single round; reference: input library; direction: higher = stronger binding
Target: ATP-dependent RNA helicase DDX3X, helicase core (DDX3X, Homo sapiens, UniProt O00571, residues 132-607)
Sequence of UniProt O00571 (132-607, looked up): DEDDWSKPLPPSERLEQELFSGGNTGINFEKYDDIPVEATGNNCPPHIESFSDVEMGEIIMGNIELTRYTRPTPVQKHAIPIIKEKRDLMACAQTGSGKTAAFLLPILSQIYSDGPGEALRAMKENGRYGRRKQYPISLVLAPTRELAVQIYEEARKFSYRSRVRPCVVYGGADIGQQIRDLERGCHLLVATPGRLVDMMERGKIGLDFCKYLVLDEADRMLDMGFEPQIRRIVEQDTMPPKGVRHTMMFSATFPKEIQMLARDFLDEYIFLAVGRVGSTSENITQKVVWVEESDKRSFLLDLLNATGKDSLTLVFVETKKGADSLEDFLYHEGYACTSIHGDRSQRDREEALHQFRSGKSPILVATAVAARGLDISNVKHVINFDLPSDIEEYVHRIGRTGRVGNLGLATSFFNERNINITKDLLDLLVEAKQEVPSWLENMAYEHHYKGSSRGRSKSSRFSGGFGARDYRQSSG
Together with: 3 µM iPr-DMDA-PatA, 2 mM ADP, 2 mM phosphate
Strand	4-mer enrichment [fold]
ACCG	0.948
UUAU	1.16
GUUA	1.03
AAAA	1.8
UUGC	0.748
UAAU	1.23
AUUU	1.19
CAGC	0.869
UCGA	1.06
AAUU	1.31
GGUC	0.777
AUGU	1.01
AAGG	1.2
UUCA	0.991
GAGC	1.1
CACC	1.2
ACUC	1.03
UCGG	0.821
GGGA	1.24
AGUA	1.22
UUCC	0.946
GAUG	0.973
AUGA	1.25
CCCC	1.48

Study 3 — technique: RNA Bind-n-Seq; molecule type: RNA; medium: in vitro; concentration: 365 nM; reference: no-protein control; direction: higher = stronger binding
Target: RNA binding protein fox-1 homolog 2, RRM domain, GST-SBP tag (RBFOX2, Homo sapiens, UniProt O43251-10, residues 100-194)
Notes: natural RNA segment, single round, ends assumed
Constant ends, left off below: GGGAGUUCUACAGUCCGACGAUC … UGGAAUUCUCGGGUGCCAA
Target sequence (chain): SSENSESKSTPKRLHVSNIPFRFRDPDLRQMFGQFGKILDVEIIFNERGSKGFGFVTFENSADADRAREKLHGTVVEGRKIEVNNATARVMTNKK
Strand	RBNS enrichment (R)
ACAUCUCUCCUCACCUCAUGAUUGUCAUUGCCUCGGUGUGAGGCUCUGAACGGUCGCCACCUCAGGGCAUUUUCCUGAGGCUCUGCUGCAAAAAAAAAAAAAAAAAUGAA	0.593
GAGCCCUUCCAUACUCUGUGACUCUCAGUGUGAAUUGGAAUGCAAUUCUUUCCCUAAAAUGUGUGGAAAAGGCCACAUCAUGAGGACUGGUGUGAGUUGGGGUAGGGUCC	1.23
CGUGUGUAUUAUUUAAUGUCACUAUUGGUUAGUGGCCAUUUUUCAGAACUGAAGAUGGAAUGGCCUGACCAGCUAUUAAGAACGUGGGGAGACGCAGAAAUUGUGGUAAA	0.397
CUGUUUUCUGGUGCUGACUGCUACACCCAGGACUUUGCCCUCACUAAGCAAAUGUACCACCAAUGAGCCAGGUUCCUAGCCUUCCUUUUGGAAGCUCAGUUCUUGAGUUG	0.225
GGACCUUGGCAGCCCAGGCCGGGGUGGAGCAUGGGCCUGGCCACCUCUCUCCUUUGCUGAGGCCUCCAGCUUCAGGCAGGCCAAGGCCUUCUCCUCCCCACCCGCCCUCC	0.407
AGAGCUAAGUUCCUGAAGACUAAGCUAGAUAGCUGCAGCUAUAUGUAAAUUGUAUAUUUUUAUGAACUUUUGAAGCACACACUCCUGUUUCCCUCUGUGUAGCUUUGUGG	0.487
CGUGUCCAUCCUUACCAAAGGAUUGUGACCGCAGACCGAGGCGCCACCGGCAACUAACCUAUGACCUUCUGACCUCUGAACUCUUCACCCAAUGAUGACCUGACCAUGCC	0.187
UACUAAAAGGUUCAUUGGUUCCAAUCACAGCUCAUAGGUAGAGCAAAGAAAGGGUGGAUGGAUUGAAAAGAUUAGCCUCUGUCUCGGUGGCAGGUUCCCACCUCGCAAGC	0.479

Study 4 — technique: RNA Bind-n-Seq; molecule type: RNA; medium: in vitro; concentration: 1 µM; notes: whole 134-nt RNA, ends assumed; together with: 150 mM KCl; reference: input library; direction: higher = stronger binding
Target: Ras GTPase-activating protein-binding protein 1, C-terminal RGG region (G3BP1, Homo sapiens, UniProt Q13283)
Sequence of UniProt Q13283 (whole entry, looked up): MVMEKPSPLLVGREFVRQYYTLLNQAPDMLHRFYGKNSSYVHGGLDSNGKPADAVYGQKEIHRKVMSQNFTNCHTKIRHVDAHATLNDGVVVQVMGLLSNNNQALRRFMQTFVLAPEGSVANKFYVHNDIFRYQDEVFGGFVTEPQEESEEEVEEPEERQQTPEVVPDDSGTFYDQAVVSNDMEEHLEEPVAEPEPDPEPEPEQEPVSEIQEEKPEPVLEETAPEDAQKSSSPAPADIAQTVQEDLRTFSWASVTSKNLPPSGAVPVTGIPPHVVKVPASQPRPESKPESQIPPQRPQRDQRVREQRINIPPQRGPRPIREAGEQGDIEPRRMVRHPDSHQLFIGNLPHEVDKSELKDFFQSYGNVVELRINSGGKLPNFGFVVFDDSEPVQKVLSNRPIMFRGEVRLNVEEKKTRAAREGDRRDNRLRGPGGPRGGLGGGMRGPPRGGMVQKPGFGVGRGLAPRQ
Constant ends, left off below: GGGAGUUCUACAGUCCGACGAUC … UGGAAUUCUCGGGUGUCAAGG
Strand	log2 enrichment
CCUGUGCUACACAUCGUAUGUACCGAAUCGGGAAAAAAGGGAAAAAAGGGGAAAAAAGGGGAAAGUAUUAUGUUACGCCGUUCGGAUCUG	-1.24
GUCCUGUGCUACACAUCGUAUGUACCGAAUCGGGGAAAAAGGGGUGGGGAAAAAGGGGAAAGUAUUAUGUUACGCCGUUCGGAUCUGCAC	1.12
CAAGUCCUGUGCUACACAUCGUAUGUACCGAAUCGGGGCCCGGCCCGGGGCCCGGGAAAGUAUUAUGUUACGCCGUUCGGAUCUGCACUU	-2.13
UCAAGUCCUGUGCUACACAUCGUAUGUACCGAAUCGGCCCGGGGCCCGGCCCGGAAAGUAUUAUGUUACGCCGUUCGGAUCUGCACUUCC	-1.25
AGUCCUGUGCUACACAUCGUAUGUACCGAAUCGGGGAGGGGUGGGGAAAAAAAGGGGAAAGUAUUAUGUUACGCCGUUCGGAUCUGCACU	1.44
CUGUGCUACACAUCGUAUGUACCGAAUCGGGGAAAAAAAGGAAAAAAAGGGAAAAAAAGGGGAAAGUAUUAUGUUACGCCGUUCGGAUCU	-1.29
CUCAAGUCCUGUGCUACACAUCGUAUGUACCGAAUCGGGGCCGGCCGGCCGGGGAAAGUAUUAUGUUACGCCGUUCGGAUCUGCACUUCC	-0.927
GCAGGAAGUAAAAACAAAUGGAAAUGCUUCGGAUAGUGGCAGGGGUGGGGGAAACUAAGGAAAGGGUGGGAUGGGAGUGGGUAAAGAGUU	1.71
AAGUCCUGUGCUACACAUCGUAUGUACCGAAUCGGGCCCCGGGCCCCGGCCCCGGGGAAAGUAUUAUGUUACGCCGUUCGGAUCUGCACU	-2.3

Excerpt of the above (study 3):
Strand	RBNS enrichment (R)
UACUAAAAGGUUCAUUGGUUCCAAUCACAGCUCAUAGGUAGAGCAAAGAAAGGGUGGAUGGAUUGAAAAGAUUAGCCUCUGUCUCGGUGGCAGGUUCCCACCUCGCAAGC	0.479
CGUGUCCAUCCUUACCAAAGGAUUGUGACCGCAGACCGAGGCGCCACCGGCAACUAACCUAUGACCUUCUGACCUCUGAACUCUUCACCCAAUGAUGACCUGACCAUGCC	0.187
GGACCUUGGCAGCCCAGGCCGGGGUGGAGCAUGGGCCUGGCCACCUCUCUCCUUUGCUGAGGCCUCCAGCUUCAGGCAGGCCAAGGCCUUCUCCUCCCCACCCGCCCUCC	0.407
AGAGCUAAGUUCCUGAAGACUAAGCUAGAUAGCUGCAGCUAUAUGUAAAUUGUAUAUUUUUAUGAACUUUUGAAGCACACACUCCUGUUUCCCUCUGUGUAGCUUUGUGG	0.487
CUGUUUUCUGGUGCUGACUGCUACACCCAGGACUUUGCCCUCACUAAGCAAAUGUACCACCAAUGAGCCAGGUUCCUAGCCUUCCUUUUGGAAGCUCAGUUCUUGAGUUG	0.225
GAGCCCUUCCAUACUCUGUGACUCUCAGUGUGAAUUGGAAUGCAAUUCUUUCCCUAAAAUGUGUGGAAAAGGCCACAUCAUGAGGACUGGUGUGAGUUGGGGUAGGGUCC	1.23
CGUGUGUAUUAUUUAAUGUCACUAUUGGUUAGUGGCCAUUUUUCAGAACUGAAGAUGGAAUGGCCUGACCAGCUAUUAAGAACGUGGGGAGACGCAGAAAUUGUGGUAAA	0.397
